{"data": "Assay results from different studies", "CNR1": "Cannabinoid receptor 1 (CNR1, Homo sapiens, UniProt P21554)", "note": "± marks the error that the study gave.", "UniProt P21554, sequence (whole entry, looked up)": "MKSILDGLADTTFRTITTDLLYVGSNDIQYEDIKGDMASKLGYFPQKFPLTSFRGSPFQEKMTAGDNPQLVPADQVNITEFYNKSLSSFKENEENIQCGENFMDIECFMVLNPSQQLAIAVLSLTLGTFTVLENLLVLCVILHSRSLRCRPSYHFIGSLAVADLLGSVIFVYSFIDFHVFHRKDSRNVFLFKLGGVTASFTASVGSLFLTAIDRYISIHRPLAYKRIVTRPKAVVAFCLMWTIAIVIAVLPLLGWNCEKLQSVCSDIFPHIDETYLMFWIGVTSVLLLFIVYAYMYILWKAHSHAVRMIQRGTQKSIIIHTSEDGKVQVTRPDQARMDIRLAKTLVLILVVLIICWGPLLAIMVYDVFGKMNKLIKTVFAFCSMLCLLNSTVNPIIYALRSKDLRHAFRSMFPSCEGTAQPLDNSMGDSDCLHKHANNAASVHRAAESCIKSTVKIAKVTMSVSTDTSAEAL", "UniProt Q9NYL2, sequence (whole entry, looked up)": "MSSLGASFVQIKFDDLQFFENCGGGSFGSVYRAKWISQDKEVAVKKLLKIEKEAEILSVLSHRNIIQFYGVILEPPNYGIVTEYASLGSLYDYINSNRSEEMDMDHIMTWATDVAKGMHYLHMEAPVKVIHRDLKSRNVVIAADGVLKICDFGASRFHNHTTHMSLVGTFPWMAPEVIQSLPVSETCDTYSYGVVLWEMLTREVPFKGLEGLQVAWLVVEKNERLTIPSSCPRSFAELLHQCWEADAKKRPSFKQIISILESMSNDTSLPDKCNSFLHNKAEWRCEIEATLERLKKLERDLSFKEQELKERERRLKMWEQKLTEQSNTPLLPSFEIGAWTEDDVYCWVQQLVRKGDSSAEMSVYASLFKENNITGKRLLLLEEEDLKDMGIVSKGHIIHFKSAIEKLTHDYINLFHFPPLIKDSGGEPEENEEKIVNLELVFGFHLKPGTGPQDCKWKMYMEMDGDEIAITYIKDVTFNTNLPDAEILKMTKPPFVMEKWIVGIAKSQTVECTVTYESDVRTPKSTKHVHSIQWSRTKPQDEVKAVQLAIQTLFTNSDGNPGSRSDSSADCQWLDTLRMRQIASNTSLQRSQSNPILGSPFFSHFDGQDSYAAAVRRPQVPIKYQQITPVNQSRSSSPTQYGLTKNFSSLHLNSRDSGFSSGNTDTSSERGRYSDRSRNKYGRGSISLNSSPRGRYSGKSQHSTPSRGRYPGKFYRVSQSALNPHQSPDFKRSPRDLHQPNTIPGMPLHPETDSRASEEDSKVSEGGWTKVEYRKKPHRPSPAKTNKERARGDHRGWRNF", "UniProt Q13188, sequence (whole entry, looked up)": "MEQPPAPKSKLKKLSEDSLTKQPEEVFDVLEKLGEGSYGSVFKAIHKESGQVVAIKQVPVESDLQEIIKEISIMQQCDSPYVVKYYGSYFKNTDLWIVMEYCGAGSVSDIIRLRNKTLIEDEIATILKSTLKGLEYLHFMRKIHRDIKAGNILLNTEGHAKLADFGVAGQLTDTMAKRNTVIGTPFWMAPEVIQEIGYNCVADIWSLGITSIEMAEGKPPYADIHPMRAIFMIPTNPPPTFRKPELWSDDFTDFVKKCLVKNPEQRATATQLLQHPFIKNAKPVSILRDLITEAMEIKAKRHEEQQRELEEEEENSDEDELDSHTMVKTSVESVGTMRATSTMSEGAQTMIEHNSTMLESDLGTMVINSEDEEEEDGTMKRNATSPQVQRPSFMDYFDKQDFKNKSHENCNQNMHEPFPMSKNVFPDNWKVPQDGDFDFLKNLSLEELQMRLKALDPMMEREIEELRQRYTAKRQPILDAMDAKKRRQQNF", "UniProt P22455, sequence (whole entry, looked up)": "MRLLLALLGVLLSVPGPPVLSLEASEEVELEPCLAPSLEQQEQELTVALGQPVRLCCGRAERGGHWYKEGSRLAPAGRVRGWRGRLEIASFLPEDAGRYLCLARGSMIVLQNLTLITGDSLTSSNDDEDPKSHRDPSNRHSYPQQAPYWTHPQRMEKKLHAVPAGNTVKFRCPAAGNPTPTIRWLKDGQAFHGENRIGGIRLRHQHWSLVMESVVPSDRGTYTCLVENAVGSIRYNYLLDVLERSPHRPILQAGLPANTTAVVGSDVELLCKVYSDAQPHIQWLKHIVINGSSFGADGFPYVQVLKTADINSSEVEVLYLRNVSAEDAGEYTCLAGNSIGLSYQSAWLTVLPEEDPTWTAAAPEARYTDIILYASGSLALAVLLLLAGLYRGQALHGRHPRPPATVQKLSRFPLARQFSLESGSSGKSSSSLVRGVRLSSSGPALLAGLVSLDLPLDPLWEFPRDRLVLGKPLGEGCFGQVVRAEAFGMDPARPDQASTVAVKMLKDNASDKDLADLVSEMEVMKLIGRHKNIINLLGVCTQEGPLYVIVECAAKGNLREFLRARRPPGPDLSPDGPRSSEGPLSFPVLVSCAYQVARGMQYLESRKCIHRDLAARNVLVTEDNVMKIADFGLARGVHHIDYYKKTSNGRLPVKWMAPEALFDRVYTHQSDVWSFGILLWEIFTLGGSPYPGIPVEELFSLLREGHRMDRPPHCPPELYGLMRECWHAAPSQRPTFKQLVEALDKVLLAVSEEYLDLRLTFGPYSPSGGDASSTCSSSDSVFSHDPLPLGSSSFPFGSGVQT", "UniProt P37288, sequence (whole entry, looked up)": "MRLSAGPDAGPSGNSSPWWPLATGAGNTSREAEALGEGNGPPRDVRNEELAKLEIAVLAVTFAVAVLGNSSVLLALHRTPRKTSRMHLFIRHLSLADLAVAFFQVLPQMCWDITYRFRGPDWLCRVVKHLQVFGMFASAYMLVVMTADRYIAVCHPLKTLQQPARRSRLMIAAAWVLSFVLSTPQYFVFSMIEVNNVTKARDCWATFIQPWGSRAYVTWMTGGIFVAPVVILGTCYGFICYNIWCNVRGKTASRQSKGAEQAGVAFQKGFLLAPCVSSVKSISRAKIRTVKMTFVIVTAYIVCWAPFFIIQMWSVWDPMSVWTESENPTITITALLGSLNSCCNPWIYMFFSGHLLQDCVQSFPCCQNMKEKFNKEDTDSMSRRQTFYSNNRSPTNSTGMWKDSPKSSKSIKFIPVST", "UniProt P16234, sequence (whole entry, looked up)": "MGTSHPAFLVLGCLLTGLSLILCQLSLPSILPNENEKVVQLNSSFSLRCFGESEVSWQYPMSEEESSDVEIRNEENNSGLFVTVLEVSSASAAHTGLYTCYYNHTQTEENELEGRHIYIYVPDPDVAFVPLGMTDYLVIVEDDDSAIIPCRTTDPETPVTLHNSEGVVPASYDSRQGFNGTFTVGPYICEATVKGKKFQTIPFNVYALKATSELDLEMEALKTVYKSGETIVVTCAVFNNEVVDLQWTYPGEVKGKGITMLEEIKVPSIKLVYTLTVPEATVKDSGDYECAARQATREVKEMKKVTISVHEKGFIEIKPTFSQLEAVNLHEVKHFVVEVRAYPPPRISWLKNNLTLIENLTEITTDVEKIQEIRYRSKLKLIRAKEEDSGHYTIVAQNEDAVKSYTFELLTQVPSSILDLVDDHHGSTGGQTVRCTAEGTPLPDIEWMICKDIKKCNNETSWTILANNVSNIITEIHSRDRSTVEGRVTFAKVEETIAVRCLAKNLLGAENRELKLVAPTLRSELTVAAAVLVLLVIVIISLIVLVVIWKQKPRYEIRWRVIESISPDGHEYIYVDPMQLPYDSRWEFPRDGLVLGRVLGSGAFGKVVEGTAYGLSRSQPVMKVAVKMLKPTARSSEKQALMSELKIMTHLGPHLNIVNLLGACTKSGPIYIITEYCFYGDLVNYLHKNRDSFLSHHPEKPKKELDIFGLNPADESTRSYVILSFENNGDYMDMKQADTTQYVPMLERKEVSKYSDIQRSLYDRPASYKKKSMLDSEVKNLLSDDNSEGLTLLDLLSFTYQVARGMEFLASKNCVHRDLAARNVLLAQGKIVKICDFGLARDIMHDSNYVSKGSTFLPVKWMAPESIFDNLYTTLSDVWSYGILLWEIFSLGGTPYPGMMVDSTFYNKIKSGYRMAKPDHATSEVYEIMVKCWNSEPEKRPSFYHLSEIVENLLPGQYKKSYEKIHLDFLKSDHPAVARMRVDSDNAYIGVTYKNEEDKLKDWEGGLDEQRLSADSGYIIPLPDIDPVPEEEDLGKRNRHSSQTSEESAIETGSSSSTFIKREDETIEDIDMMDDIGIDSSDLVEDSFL", "UniProt P04049, sequence (whole entry, looked up)": "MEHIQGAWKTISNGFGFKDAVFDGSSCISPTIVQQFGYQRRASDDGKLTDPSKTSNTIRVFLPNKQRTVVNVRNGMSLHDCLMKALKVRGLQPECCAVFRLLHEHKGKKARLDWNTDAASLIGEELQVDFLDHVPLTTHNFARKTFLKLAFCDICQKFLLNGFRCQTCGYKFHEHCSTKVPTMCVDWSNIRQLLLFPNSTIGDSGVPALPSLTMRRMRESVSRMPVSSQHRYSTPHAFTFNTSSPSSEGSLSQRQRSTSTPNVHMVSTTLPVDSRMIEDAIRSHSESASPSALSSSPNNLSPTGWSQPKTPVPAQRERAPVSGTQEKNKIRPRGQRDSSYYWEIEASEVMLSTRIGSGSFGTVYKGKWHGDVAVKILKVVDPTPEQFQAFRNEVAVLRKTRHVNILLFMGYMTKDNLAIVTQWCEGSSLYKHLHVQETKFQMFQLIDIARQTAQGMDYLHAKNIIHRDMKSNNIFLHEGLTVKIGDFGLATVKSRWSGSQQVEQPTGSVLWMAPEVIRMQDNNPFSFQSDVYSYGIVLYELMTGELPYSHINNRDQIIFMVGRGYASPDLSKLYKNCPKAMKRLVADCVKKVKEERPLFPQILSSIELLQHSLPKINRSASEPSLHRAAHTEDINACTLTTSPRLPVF"}
{"Structure (SMILES)": "CN(C)[C@H]1C[C@@]23CC[C@@]4(O2)C(=CC[C@]2(C)[C@@H](c5ccc6ccncc6c5)CC[C@H]24)C=C3[C@@H](O)[C@@H]1O", "tested on": "MAP3K20 (Homo sapiens, UniProt Q9NYL2)", "assay": "ATP probe labelling, inhibitor, KiNativ profiling", "setting": "1 µM", "endpoint": "inhibition", "value": "-5.5%"}
{"Structure (SMILES)": "Cc1ccc2c(C(C[N+](=O)[O-])c3cccs3)c(-c3ccccc3)[nH]c2c1 (stereo not shown)", "tested on": "CNR1", "assay": "Gαi1-γ2 dissociation, BRET", "endpoint": "Emax", "value": "100 ± 2.38%"}
{"Structure (SMILES)": "Nc1ccc(/C=C/C(=O)N2CCc3c(oc4c(-c5ccc(F)cc5)cc(-c5ccc(C(=O)N6CCC(F)(F)CC6)cn5)cc34)C2)cn1", "tested on": "CSNK1D (Homo sapiens, UniProt P48730)", "assay": "binding, competition with immobilised ligand", "setting": "1 µM", "endpoint": "remaining binding", "value": "100%"}
{"Structure (SMILES)": "CC(C)[C@H]1NC(=O)C[C@H]2/C=C/CCSSC[C@@H](NC1=O)C(=O)N[C@H](Cc1cccc3ccccc13)C(=O)NCC(=O)O2", "tested on": "FGFR4 (Homo sapiens, UniProt P22455)", "assay": "enzyme activity, inhibitor", "setting": "10 µM", "endpoint": "inhibition", "value": "0.5%"}
{"Structure (SMILES)": "Cc1sc2c(c1C)C(c1ccc(Cl)cc1)=NC(CC(=O)OC(C)(C)C)c1nnc(C)n1-2 (stereo not shown)", "tested on": "AVPR1A (Homo sapiens, UniProt P37288)", "assay": "ligand displacement, radioligand", "setting": "1 µM", "endpoint": "inhibition", "value": "-5%"}
{"Structure (SMILES)": "COc1ccccc1C(C[N+](=O)[O-])c1c(-c2ccccc2)[nH]c2ccccc12 (stereo not shown)", "tested on": "CNR1", "assay": "Gαi1-γ2 dissociation, BRET", "endpoint": "Emax", "value": "100 ± 6.18%"}
{"Structure (SMILES)": "CONC(=O)[C@H]1[C@@H](O)[C@@]2(O)c3c(OC)cc(OC)cc3O[C@@]2(c2ccc(OC)cc2)[C@@H]1c1ccccc1", "assay": "cap-dependent firefly luciferase translation", "system": "Krebs-2 cell extract", "setting": "concentration not given, (UC)10-containing reporter, tested concentrations", "endpoint": "translation inhibition", "value": "no inhibition"}
{"Structure (SMILES)": "O=C1NC(=O)c2c1c1cc(F)c[n+]3c1c1c2c2cc(O)ccc2[n]1[Ru-4]312([N]=C=S)[S+]3CC[S+]1CC[S+]2CC3 (stereo not shown)", "tested on": "RAF1 (Homo sapiens, UniProt P04049)", "assay": "enzyme activity", "setting": "100 nM, human enzyme, together with: 10 µM ATP", "scale": "relative to: untreated", "endpoint": "remaining activity", "value": "100%"}
{"Structure (SMILES)": "CS(C)(=O)=Nc1ccc(-c2ccc(-c3nc4cc(O[C@@H]5CO[C@H]6[C@@H]5OC[C@H]6O)[nH]c4cc3F)cc2)cc1", "tested on": "PDGFRA (Homo sapiens, UniProt P16234)", "assay": "enzyme activity, inhibitor", "setting": "10 µM", "endpoint": "inhibition", "value": "-6%"}
{"Structure (SMILES)": "N[C@H](C(=O)N1CCCC1)C1CCN(c2nccc3c(-c4ncc(Cl)cc4Cl)cccc23)CC1", "tested on": "STK3 (Homo sapiens, UniProt Q13188)", "assay": "kinase activity, inhibitor", "setting": "10 µM, together with: ATP 1 mM", "endpoint": "inhibition", "value": "-4.8%"}
